# Measurements pooled from the literature.
# Lines come from different studies, so protocols differ. Values joined by “and” are separate records of one study, mostly repeats; a detail may differ. ± marks the error that the study gave.
# Oprm1: Mu-type opioid receptor (Oprm1, Rattus norvegicus, UniProt P33535)
# Chain of UniProt P33535 (whole entry, looked up): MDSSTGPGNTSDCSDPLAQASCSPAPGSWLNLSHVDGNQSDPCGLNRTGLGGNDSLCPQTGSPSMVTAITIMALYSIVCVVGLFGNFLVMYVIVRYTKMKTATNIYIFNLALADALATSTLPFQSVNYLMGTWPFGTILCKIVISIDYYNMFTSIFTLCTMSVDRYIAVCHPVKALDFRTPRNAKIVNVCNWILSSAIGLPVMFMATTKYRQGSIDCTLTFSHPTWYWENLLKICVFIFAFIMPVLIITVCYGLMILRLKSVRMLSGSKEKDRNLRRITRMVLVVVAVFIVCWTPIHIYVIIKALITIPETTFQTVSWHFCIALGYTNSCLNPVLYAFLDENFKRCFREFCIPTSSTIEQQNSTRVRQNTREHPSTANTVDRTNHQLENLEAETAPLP
# sdiA: Regulatory protein SdiA (sdiA, Escherichia coli, UniProt P07026)
# Chain of UniProt P07026 (whole entry, looked up): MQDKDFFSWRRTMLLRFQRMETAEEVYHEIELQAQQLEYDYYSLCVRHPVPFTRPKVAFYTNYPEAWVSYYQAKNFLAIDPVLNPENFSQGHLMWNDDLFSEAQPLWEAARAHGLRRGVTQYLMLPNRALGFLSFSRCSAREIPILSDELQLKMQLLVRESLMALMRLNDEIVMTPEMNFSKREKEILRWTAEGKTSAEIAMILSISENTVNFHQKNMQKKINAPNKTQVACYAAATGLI
# Uncharacterized hydrolase SAUSA300_2518: Uncharacterized hydrolase SAUSA300_2518 (Staphylococcus aureus, UniProt Q2FDS6)
# Chain of UniProt Q2FDS6 (whole entry, looked up): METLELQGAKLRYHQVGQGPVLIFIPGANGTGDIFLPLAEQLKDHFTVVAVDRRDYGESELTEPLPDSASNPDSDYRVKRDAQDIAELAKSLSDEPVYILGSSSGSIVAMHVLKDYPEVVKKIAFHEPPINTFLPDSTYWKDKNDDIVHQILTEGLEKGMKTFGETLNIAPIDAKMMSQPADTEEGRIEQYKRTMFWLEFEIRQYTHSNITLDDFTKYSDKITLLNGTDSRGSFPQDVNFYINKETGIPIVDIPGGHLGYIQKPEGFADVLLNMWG
# KEAP1: Kelch-like ECH-associated protein 1 (KEAP1, Homo sapiens, UniProt Q14145)
# Chain of UniProt Q14145 (whole entry, looked up): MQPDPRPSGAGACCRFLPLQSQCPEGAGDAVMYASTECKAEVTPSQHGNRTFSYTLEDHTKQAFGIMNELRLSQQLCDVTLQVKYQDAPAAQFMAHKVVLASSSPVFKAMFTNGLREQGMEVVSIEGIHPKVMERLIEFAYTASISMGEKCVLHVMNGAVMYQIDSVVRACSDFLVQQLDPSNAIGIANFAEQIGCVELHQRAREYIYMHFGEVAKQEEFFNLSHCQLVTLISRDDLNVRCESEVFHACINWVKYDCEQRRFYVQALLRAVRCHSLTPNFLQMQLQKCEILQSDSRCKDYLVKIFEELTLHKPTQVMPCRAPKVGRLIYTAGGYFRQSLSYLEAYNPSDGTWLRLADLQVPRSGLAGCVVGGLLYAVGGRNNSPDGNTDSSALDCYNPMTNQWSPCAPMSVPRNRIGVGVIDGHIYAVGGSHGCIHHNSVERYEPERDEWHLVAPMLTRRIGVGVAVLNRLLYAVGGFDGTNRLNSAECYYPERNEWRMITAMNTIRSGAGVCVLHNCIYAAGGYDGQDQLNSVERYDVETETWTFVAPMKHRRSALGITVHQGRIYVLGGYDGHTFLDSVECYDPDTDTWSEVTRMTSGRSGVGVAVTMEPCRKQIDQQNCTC
# Pnpla8: Pnpla8 (Mus musculus, UniProt Q8K1N1)
# Chain of UniProt Q8K1N1 (whole entry, looked up): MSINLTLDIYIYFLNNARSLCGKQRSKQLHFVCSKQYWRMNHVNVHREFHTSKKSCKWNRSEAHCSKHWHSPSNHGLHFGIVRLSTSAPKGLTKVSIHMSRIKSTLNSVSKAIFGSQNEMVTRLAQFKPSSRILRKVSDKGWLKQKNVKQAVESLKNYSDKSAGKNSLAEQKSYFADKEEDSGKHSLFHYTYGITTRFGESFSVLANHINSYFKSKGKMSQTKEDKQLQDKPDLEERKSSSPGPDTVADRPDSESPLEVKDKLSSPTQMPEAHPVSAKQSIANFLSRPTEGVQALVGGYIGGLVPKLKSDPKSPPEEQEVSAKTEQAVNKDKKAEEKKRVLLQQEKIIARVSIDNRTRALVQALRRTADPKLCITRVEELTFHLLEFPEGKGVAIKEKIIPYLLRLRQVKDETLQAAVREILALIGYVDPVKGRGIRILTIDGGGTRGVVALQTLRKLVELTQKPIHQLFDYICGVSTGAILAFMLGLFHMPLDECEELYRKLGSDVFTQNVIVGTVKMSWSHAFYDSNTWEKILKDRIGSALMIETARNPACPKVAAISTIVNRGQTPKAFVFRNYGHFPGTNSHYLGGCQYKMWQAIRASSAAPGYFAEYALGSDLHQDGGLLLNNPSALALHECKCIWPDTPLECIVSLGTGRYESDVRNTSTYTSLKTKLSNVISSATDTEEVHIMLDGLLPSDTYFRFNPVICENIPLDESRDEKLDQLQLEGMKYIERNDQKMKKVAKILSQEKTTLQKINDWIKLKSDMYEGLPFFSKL
# CSNK2A1: Casein kinase II subunit alpha (CSNK2A1, Homo sapiens, UniProt P68400)
# Chain of UniProt P68400 (whole entry, looked up): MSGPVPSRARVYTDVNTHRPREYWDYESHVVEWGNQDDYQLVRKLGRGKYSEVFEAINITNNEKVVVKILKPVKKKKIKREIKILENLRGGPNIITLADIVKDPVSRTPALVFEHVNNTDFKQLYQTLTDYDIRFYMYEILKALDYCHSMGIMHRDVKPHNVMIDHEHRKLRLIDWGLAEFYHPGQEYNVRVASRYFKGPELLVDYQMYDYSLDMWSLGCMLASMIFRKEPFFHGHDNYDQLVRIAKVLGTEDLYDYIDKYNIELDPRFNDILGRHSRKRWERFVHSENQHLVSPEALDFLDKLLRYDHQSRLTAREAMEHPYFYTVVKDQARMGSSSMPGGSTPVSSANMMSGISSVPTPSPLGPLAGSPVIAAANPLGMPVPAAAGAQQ
# lasR: Transcriptional activator protein LasR (lasR, Pseudomonas aeruginosa, UniProt P25084)
# Chain of UniProt P25084 (whole entry, looked up): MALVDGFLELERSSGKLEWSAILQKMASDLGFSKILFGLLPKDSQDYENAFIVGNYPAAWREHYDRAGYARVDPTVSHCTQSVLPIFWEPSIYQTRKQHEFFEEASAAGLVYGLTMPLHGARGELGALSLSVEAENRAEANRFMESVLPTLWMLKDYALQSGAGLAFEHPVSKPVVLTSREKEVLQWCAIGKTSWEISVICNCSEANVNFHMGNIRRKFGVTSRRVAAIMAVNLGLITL
# Chain of UniProt Q9Y2J8 (whole entry, looked up): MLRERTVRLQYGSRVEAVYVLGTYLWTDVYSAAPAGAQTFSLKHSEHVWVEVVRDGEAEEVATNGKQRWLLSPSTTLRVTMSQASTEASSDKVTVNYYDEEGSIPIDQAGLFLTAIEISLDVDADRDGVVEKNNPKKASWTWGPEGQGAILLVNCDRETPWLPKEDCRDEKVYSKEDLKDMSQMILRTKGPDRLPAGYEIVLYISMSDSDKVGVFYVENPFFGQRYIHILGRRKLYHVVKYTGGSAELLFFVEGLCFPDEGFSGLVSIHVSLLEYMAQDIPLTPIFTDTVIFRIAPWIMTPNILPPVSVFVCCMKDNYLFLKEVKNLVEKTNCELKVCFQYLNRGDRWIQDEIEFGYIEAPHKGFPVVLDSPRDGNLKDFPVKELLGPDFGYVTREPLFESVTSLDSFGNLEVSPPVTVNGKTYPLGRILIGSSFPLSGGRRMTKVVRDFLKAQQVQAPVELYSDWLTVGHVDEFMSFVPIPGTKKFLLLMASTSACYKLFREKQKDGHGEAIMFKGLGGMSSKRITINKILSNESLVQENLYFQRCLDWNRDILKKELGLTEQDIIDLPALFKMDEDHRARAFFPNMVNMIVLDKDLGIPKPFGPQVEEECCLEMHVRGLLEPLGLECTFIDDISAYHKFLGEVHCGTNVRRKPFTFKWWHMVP
# Chain of UniProt Q9H2X3 (whole entry, unmodified, looked up): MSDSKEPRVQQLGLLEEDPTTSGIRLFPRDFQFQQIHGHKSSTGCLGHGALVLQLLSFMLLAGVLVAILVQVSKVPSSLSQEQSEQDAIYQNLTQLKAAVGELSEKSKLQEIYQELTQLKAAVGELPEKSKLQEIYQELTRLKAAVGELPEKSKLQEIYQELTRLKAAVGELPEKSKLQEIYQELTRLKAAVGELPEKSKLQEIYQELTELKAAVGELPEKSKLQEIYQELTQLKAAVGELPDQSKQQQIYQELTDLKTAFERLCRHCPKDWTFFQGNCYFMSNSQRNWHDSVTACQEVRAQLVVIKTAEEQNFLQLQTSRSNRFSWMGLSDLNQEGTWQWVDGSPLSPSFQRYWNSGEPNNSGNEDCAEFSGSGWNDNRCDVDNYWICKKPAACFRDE
# Chain of UniProt P51451 (whole entry, looked up): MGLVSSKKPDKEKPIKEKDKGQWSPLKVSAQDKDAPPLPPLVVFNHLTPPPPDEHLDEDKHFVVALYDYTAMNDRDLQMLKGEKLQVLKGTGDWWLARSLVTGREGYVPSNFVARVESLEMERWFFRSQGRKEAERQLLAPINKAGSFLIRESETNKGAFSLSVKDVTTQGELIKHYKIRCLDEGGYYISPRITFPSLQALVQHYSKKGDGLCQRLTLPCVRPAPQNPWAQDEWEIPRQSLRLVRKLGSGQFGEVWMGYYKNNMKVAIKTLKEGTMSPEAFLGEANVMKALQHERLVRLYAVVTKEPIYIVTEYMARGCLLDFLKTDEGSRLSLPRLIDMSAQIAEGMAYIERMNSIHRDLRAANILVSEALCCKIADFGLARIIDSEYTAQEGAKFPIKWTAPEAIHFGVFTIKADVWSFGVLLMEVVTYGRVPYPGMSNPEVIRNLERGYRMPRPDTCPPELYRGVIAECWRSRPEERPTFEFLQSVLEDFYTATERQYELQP
# Chain of UniProt P52699 (whole entry, looked up): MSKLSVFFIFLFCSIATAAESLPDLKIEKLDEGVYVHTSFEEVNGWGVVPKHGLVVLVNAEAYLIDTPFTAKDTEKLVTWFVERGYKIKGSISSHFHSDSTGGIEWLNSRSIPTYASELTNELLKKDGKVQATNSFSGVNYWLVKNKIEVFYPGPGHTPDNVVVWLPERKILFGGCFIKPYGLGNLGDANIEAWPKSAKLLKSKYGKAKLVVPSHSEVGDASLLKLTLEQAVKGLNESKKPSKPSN
SMILES,target,assay,system,setting,scale,measurement,result
OB(O)c1ccc(OCc2ccccc2)nc1F,"CELA1 (Sus scrofa, UniProt P00772)",pNA substrate hydrolysis,,,relative to: Ki protease over Ki AmpC,selectivity ratio,1380
Cc1cc(O)cc(C)c1C[C@H](N)C(=O)N[C@H](CCCNC(=N)N)C(=O)N[C@@H](Cc1ccccc1)C(=O)N[C@@H](CCCCN)C(=O)NCCCCCCCCNC(=O)[C@H](Cc1ccccc1)NC(=O)[C@H](CC1CCCCC1)NC[C@@H]1Cc2ccccc2CN1C(=O)[C@@H](N)Cc1ccc(O)cc1,Oprm1,binding,rat brain membranes,together with: [3H]DAMGO,relative to: Ki mu over Ki delta,selectivity ratio,3.92
CC[C@@H](C)[C@@H]1CN([C@@H](CC2CCCCC2)CN2CCC[C@H]2CN2CCNC[C@@H]2Cc2ccc3ccccc3c2)CCN1CCc1ccc(Cl)c(Cl)c1,Oprm1,radioligand binding,rat brain membranes,"500 nM, pH 7.5, 25 °C, together with: 0.87 nM [3H]DAMGO",,remaining binding,107 ± 6.13%
C#CCCCCOc1ccc2c(c1)CCCN2C(=O)CCl,"NPC1 (Homo sapiens, UniProt O15118)",mass spectrometry profiling,H460 cell lysate,"100 µM over 10 µM, UniProt O15118",relative to: high over low concentration,reactivity ratio,1.4
CN(/N=C/c1ccccc1C(=O)O)c1nc(-c2ccccc2Cl)cs1,"JAK2 (Homo sapiens, UniProt O60674)",kinase activity,,1 µM,,inhibition,0.1%
COc1cccc(CC(=O)N[C@H]2CCOC2=O)c1,sdiA,,,,,Emax,112%
O=C(O)c1cccc(CP(=O)(O)O)n1,"Metallo-beta-lactamase type 2 (Serratia marcescens, UniProt P52699)",inhibitor,,together with: nitrocefin,,dissociation half-life,22 ± 2.5 min
COc1cc2c(cc1S(=O)(=O)F)C(=O)NCCC2,Uncharacterized hydrolase SAUSA300_2518,"enzyme activity, inhibitor, fluorogenic substrate",,0.01 µM,,remaining activity,96.6% and 94.6% and 100%
N[C@H](C(=O)N1CCCC1)C1CCN(c2nccc3c(-c4ncc(Cl)cc4Cl)cccc23)CC1,"PADI2 (Homo sapiens, UniProt Q9Y2J8)",thermal shift,,0.09521 µM,,melting temperature,60.2 °C and 59.3 °C
CSCC[C@@H]1NC(=O)[C@H](Cc2ccccc2)NC(=O)[C@@H](NC(=O)[C@H](C)N)CSC(=O)[C@H](C)NC(=O)[C@H](Cc2ccccc2)NC1=O,"Histidine kinase AgrC (Listeria monocytogenes, UniProt A8E0G3)","reporter gene, agonist, agr GFP reporter",,,relative to: native 6-mer AIP,EC50 ratio,8 fold
Cc1cc(Nc2nc(C[C@@]3(C(=O)O)CCN(Cc4cccc(Cl)c4F)[C@H](C)C3)cc(C)c2F)[nH]n1,"AVPR1A (Homo sapiens, UniProt P37288)",agonist,,10 µM,,activation,0.08%
CC(C)[C@@H]1NC(=O)[C@H](CC(N)=O)NC(=O)CNC(=O)[C@H](CC(N)=O)NC(=O)[C@H](C)NC(=O)[C@H](CC(=O)O)NC(=O)[C@H]([C@@H](C)O)NC(=O)[C@H](CCC(=O)O)NC(=O)CNC(=O)[C@H]([C@@H](C)O)NC(=O)[C@H](CCC(=O)O)NC(=O)[C@H](CCC(=O)O)NC(=O)[C@H](CC(=O)O)NC1=O,KEAP1,"Keap1-Nrf2 binding, inhibitor, competitive FP",,"0.0061 µM, 30 min, together with: Nrf2 peptide probe",lower = stronger inhibition,fluorescence polarization,0.98 a.u. and 1.02 a.u.
O=C(COc1ccc(I)cc1)N[C@H]1CCSC1=O,sdiA,,,,,Emax,92%
C[C@@H](NC(=O)[C@@H](N)Cc1ccc(O)cc1)C(=O)NCC(=O)N[C@@H](Cc1ccccc1)C(=O)N[C@H](CCCNC(=N)N)C(=O)N[C@@H](CCCNC(=N)N)C(=O)N1CCC[C@H]1C(=O)N1C[C@H](O)C[C@H]1C(=O)NCC(=O)N[C@@H](Cc1cccs1)C(=O)N[C@@H](CO)C(=O)N1Cc2ccccc2C[C@@H]1C(=O)N1[C@H](C(=O)N[C@@H](CCCNC(=N)N)C(=O)O)C[C@@H]2CCCC[C@@H]21,"B2 bradykinin receptor (Cavia porcellus, UniProt O70526)",antagonist,guinea pig ileum,together with: naloxone 1 µM,,antagonist activity,1.7 nM
O=C(N1CCCCC1)n1ccnn1,Pnpla8,"probe labelling, inhibitor, competitive ABPP-SILAC",mouse T cells,"concentration not given, 4 h, single peptide","relative to: treated over DMSO cells, lower = stronger inhibition",SILAC activity ratio,2.07 and 1.56 and 2.15 and 2.63
CN(C)[C@H](CNC(=O)/C=C/c1cccc2ccccc12)Cc1ccc(O)cc1,"Mu-type opioid receptor, with Gi2 (OPRM1, Homo sapiens, UniProt P35372)","receptor activation, agonist",,,,Emax,80 ± 10%
CN(C)[C@H]1C[C@@]23CC[C@@]4(O2)C(=CC[C@]2(C)[C@@H](c5ccc6ccncc6c5)CC[C@H]24)C=C3[C@@H](O)[C@@H]1O,"CSNK1A1 (Homo sapiens, UniProt P48729)","ATP probe labelling, inhibitor, KiNativ profiling",,0.1 µM,,inhibition,1.6%
N=C(N)NCc1cn([C@@H]2[C@@H](OCCCl)O[C@H](CO)[C@@H](O)[C@@H]2O)nn1,"C-type lectin domain family 4 member M, extracellular domain (CLEC4M, Homo sapiens, UniProt Q9H2X3)",isothermal titration calorimetry,,,,ΔH,-11.5 kcal/mol and -11.7 kcal/mol
O=C(Cc1cccc([N+](=O)[O-])c1)N[C@H]1CCOC1=O,sdiA,,,,,Emax,118%
CC(C)CC(O)(CC(C)C)c1cn(C(=O)N2CCCC2)nn1,Pnpla8,"enzyme activity, inhibitor, competitive ABPP-SILAC",mouse T-cells,"concentration not given, 4 h, treated in situ",relative to: DMSO,activity ratio,1.41
CS(C)(=O)=Nc1ccc(-c2ccc(-c3nc4cc(O[C@@H]5CO[C@H]6[C@@H]5OC[C@H]6O)[nH]c4cc3F)cc2)cc1,CSNK2A1,"enzyme activity, inhibitor",,10 µM,,inhibition,14%
O=C1NC(=O)c2c1c1cc(F)c[n+]3c1c1c2c2cc(O)ccc2[n]1[Ru-4]312([N]=C=S)[S+]3CC[S+]1CC[S+]2CC3 (stereo not drawn),CSNK2A1,enzyme activity,,"100 nM, human enzyme, together with: 10 µM ATP",relative to: untreated,remaining activity,112%
CCCCCCCCCC(=O)CC(=O)Nc1ccccc1O,lasR,"reporter gene, agonist",,,relative to: EC50 PAO-JP2 over E. coli JLD271,potency ratio,180
COc1ccccc1-c1n[nH]c2nc(NC3CCN(C(=O)Cc4ccc(F)cc4F)CC3)ncc12,Leishmania donovani NPK1-related kinase (LINJ.24.1500),bead binding competition,Leishmania donovani extract,10 µM,relative to: vehicle,relative abundance,0.72
C[C@H](NCc1ccc(-c2ccc(C(F)(F)F)cc2)cc1)C(N)=O,"FLT3 (Homo sapiens, UniProt P36888)","cell-free assay, competition with immobilised ligand",,1 µM,,inhibition,14%
CC(C)[C@H]1NC(=O)C[C@H]2/C=C/CCSSC[C@@H](NC1=O)C(=O)N[C@H](Cc1cccc3ccccc13)C(=O)NCC(=O)O2,"BLK (Homo sapiens, UniProt P51451)","enzyme activity, inhibitor",,10 µM,,inhibition,4.3%
CCOC(=O)[C@@H]1Cc2c(cc([N+](=O)[O-])cc2[N+](=O)[O-])[C@H](O)[C@]12C(=O)Nc1ccc(Br)cc12,"RAF1 (Homo sapiens, UniProt P04049)","binding, competition with immobilised ligand",,0.1 µM,,remaining binding,93%
O=C1C=C(Br)/C(=C/Br)O1,lasR,"reporter gene, antagonist","Escherichia coli, JLD271 with LasR plasmid","concentration not given, together with: OdDHL 2 nM",,antagonist activity,inactive
OC[C@H]1CNCCN1C[C@@H]1CCCN1C[C@@H](Cc1ccc2ccccc2c1)N1CCN(CCc2ccc(Cl)c(Cl)c2)[C@H](Cc2ccc(O)cc2)C1,Oprm1,radioligand binding,rat brain membranes,"500 nM, pH 7.5, 25 °C, together with: 0.87 nM [3H]DAMGO",,remaining binding,110 ± 8.69%
O=C(CC(=O)N[C@H]1CCOC1=O)Cc1ccccc1,lasR,"reporter gene, antagonist",,,relative to: IC50 PAO-JP2 over E. coli JLD271,potency ratio,26
O=C(Nc1ccncc1)c1ccccc1OS(=O)(=O)F,Uncharacterized hydrolase SAUSA300_2518,"enzyme activity, inhibitor, fluorogenic substrate",,5 µM,,remaining activity,51.2% and 51.3% and 49.5%
CCCCCCCCCC(=O)CC(=O)Nc1ccccc1,lasR,"reporter gene, agonist",Escherichia coli JLD271,"10 µM, pSC11 and pJN105L plasmids",relative to: OdDHL at same concentration,agonist activity,30%
CC(C)[C@@H]1NC(=O)[C@H](CCC(=O)O)NC(=O)CNC(=O)[C@H]([C@@H](C)O)NC(=O)[C@H](CCC(=O)O)NC(=O)[C@H](CCC(=O)O)NC(=O)[C@H](CC(=O)O)NC(=O)[C@H](C(C)C)NC(=O)[C@H]([C@@H](C)O)NC(=O)CNC(=O)[C@H](CC(=O)O)NC(=O)[C@H](CC(N)=O)NC(=O)[C@H](Cc2ccc(O)cc2)NC1=O,KEAP1,"Keap1-Nrf2 binding, inhibitor, competitive FP",,"25 µM, 30 min, together with: Nrf2 peptide probe",lower = stronger inhibition,fluorescence polarization,0.101 a.u. and 0.159 a.u.

# Some of these lines once more:
SMILES,target,assay,system,setting,scale,measurement,result
CN(C)[C@H]1C[C@@]23CC[C@@]4(O2)C(=CC[C@]2(C)[C@@H](c5ccc6ccncc6c5)CC[C@H]24)C=C3[C@@H](O)[C@@H]1O,"CSNK1A1 (Homo sapiens, UniProt P48729)","ATP probe labelling, inhibitor, KiNativ profiling",,0.1 µM,,inhibition,1.6%
N=C(N)NCc1cn([C@@H]2[C@@H](OCCCl)O[C@H](CO)[C@@H](O)[C@@H]2O)nn1,"C-type lectin domain family 4 member M, extracellular domain (CLEC4M, Homo sapiens, UniProt Q9H2X3)",isothermal titration calorimetry,,,,ΔH,-11.5 kcal/mol and -11.7 kcal/mol
COc1cc2c(cc1S(=O)(=O)F)C(=O)NCCC2,Uncharacterized hydrolase SAUSA300_2518,"enzyme activity, inhibitor, fluorogenic substrate",,0.01 µM,,remaining activity,96.6% and 94.6% and 100%
CCCCCCCCCC(=O)CC(=O)Nc1ccccc1,lasR,"reporter gene, agonist",Escherichia coli JLD271,"10 µM, pSC11 and pJN105L plasmids",relative to: OdDHL at same concentration,agonist activity,30%
